{"data": "Measurements pooled from the literature", "Bche": "Cholinesterase (Bche, Mus musculus, UniProt Q03311)", "note": "Protocols differ between the studies behind these lines. Several values in a cell are separate wells, animals, samples, runs or records. ± marks the error that the study gave."}
{"Substance": "Cc1cc2c(-c3ccco3)cnc(N[C@@H]3CCN(C)C[C@H]3C(=O)NC3CCCCC3)c2[nH]c1=O", "target or system": "Delta-type opioid receptor (OPRD1, Homo sapiens, UniProt P41143)", "test": "binding, radioligand binding", "setting": "10 µM", "endpoint": "inhibition", "value": "40.9%"}
{"Substance": "C[C@@H]1NC(=O)[C@H](CCCNC(=N)N)NC(=O)[C@H](CCCNC(=N)N)NC(=O)[C@H](CCCNC(=N)N)NC(=O)[C@H](CO)NC(=O)[C@@H]2CSSC[C@H](NC(=O)CN)C(=O)N[C@@H](CSSC[C@@H](C(N)=O)NC(=O)[C@H](CO)NC(=O)[C@H](CCCNC(=N)N)NC1=O)C(=O)N[C@@H](CO)C(=O)N[C@@H](Cc1c[nH]cn1)C(=O)N1CCC[C@H]1C(=O)N[C@@H](C)C(=O)N2", "target or system": "Neuronal acetylcholine receptor subunit alpha-7 (CHRNA7, Homo sapiens, UniProt P36544)", "test": "ion current, antagonist", "system": "Xenopus oocytes", "setting": "10 µM, 5 min, with: acetylcholine", "how to read": "baseline: control", "endpoint": "remaining response", "value": "1.4 ± 1.8%"}
{"Substance": "CCN(CC)Cc1cc(N)ccc1O", "target or system": "Acetylcholinesterase, paraoxon-inhibited (ACHE, Homo sapiens, UniProt P22303)", "test": "reactivation of inhibited enzyme, reactivator", "setting": "with: paraoxon-inhibited enzyme", "endpoint": "KR", "value": "11 ± 9.1 µM"}
{"Substance": "O=C1c2c(O)c(=O)ccn2N([C@@H]2c3ccccc3SCc3c2ccc(F)c3F)[C@@H]2COCCN12", "target or system": "RNA-directed RNA polymerase L, endonuclease domain (Dabie bandavirus, UniProt I0DF35, T128S)", "test": "protein thermostability, thermal shift", "setting": "with: Mn2+", "how to read": "baseline: IAV endonuclease over SFTSV endonuclease", "endpoint": "stabilization ratio", "value": "~2 fold"}
{"Substance": "CCCSc1nc(N[C@@H]2C[C@H]2c2ccc(F)c(F)c2)c2nnn([C@@H]3C[C@H](OCCO)[C@@H](O)[C@H]3O)c2n1", "system": "STEMI patients, plasma", "setting": "180 mg loading dose, 6 h, with: fentanyl", "endpoint": "plasma concentration", "value": "551 ± 507 ng/mL"}
{"Substance": "COC(=O)[C@H]1[C@@H](OC(=O)c2ccccc2)C[C@@H]2CC[C@H]1N2C", "target or system": "calf ventricular sodium channel", "setting": "with: batrachotoxin", "how to read": "baseline: KD (+) over KD (-)", "endpoint": "stereoselectivity ratio", "value": "~90"}
{"Substance": "CC(C)C[C@@H]1NC(=O)[C@H](CCC(=O)O)NC(=O)[C@@H]2CCCN2C(=O)[C@H](Cc2c[nH]cn2)NC(=O)[C@H](CCCC(=O)O)NC(=O)[C@H](CC(C)C)NC(=O)[C@H](Cc2c[nH]cn2)NC(=O)[C@@H]2CSSC[C@H](NC(=O)CN)C(=O)N[C@@H](CSSC[C@@H](C(N)=O)NC1=O)C(=O)N[C@@H](CO)C(=O)N[C@@H](Cc1c[nH]cn1)C(=O)N1CCC[C@H]1C(=O)N[C@@H](C)C(=O)N2", "target or system": "Neuronal acetylcholine receptor; alpha3/beta2 (Rattus norvegicus, UniProt P04757+P12390)", "how to read": "baseline: IC50 α6/α3β2β3 over α3β2", "endpoint": "selectivity ratio", "value": "52 and ~52"}
{"Substance": "NC(=O)c1ccc[n+]([C@@H]2O[C@H](COP(=O)([O-])OP(=O)(O)OC[C@H]3O[C@@H](n4cnc5c(N)ncnc54)[C@H](O)[C@@H]3O)[C@@H](O)[C@H]2O)c1", "target or system": "Inosine-5'-monophosphate dehydrogenase (guaB, Bacillus anthracis, UniProt A0A6L8P2U9)", "test": "substrate", "endpoint": "Kii", "value": "3.9 ± 0.5 mM"}
{"Substance": "Nc1nc2nc(C(=O)NCc3ccc(F)cc3)cnc2c(=O)[nH]1", "target or system": "Ricin, A chain (Ricinus communis, UniProt P02879)", "test": "differential scanning fluorimetry", "setting": "500 µM, pH 7.5, 2 µM protein", "endpoint": "ΔTm", "value": "2 °C"}
{"Substance": "CCOP(=S)(OCC)Oc1ccc([N+](=O)[O-])cc1", "target or system": "Bche", "system": "ES1+/+ mice, plasma", "setting": "subcutaneous, 12.5 mg/kg, 6.0 h, toxicant challenge", "endpoint": "inhibition", "value": "71.5 ± 3.9%"}
{"Substance": "[3H]diisopropyl fluorophosphate", "target or system": "Albumin (ALB, Homo sapiens, UniProt P02768)", "test": "covalent label", "setting": "19 µM, 1 h, 37 °C", "endpoint": "labelled albumin", "value": "~4%"}
{"Substance": "ferrocenium hexafluorophosphate", "target or system": "pdh1 (Macropsalliota meleagris, UniProt Q3L245)", "test": "electron acceptor", "setting": "pH 8.5, 30 °C, with: 25 mM D-glucose", "endpoint": "Km", "value": "160 ± 40 µM"}
{"Substance": "C[C@H](NP(=O)(Nc1ccn([C@H]2CS[C@@H](CO)O2)c(=O)n1)N[C@@H](C)C(=O)OCc1ccccc1)C(=O)OCc1ccccc1", "target or system": "L1210", "test": "cell proliferation", "setting": "2 d", "endpoint": "IC50", "value": "≥ 250000 nM"}
{"Substance": "Oc1cccc(N2[C@@H]3CC[C@H]2CN(CCCc2ccccc2)C3)c1", "target or system": "Kappa-type opioid receptor (OPRK1, Homo sapiens, UniProt P41145)", "test": "SAFETYscan", "setting": "human receptor", "endpoint": "Imax", "value": "89.9%"}
{"Substance": "CC(C)OP(=S)(OC(C)C)SCCNS(=O)(=O)c1ccccc1", "target or system": "Acetylcholinesterase (ACHE, Homo sapiens, UniProt P22303)", "test": "enzyme activity, inhibitor, colorimetric", "setting": "rat liver microsomes with NADPH", "endpoint": "IC50", "value": "inactive"}
{"Substance": "Cc1ccc2c(c1)-c1c(ssc1=S)C(C)(C)N2C(=O)CC(C)C", "target or system": "Fatty acid-binding protein, liver (Mus musculus, UniProt P12710)", "test": "binding, fluorescence", "setting": "with: NBD-stearic acid 500 nM", "endpoint": "displacement", "value": "~20%"}
{"Substance": "CCOC(=O)/C=C/[C@H](C[C@@H]1CCNC1=O)NC(=O)[C@@H](CC(=O)[C@@H](NC(=O)c1cc(C)on1)C(C)C)Cc1ccc(F)cc1", "target or system": "Replicase polyprotein 1ab, main protease (rep, Severe acute respiratory syndrome coronavirus 2, UniProt P0DTD1)", "test": "inhibitor", "system": "SARS-CoV-2", "setting": "40 µM, 48 h", "how to read": "baseline: vehicle", "endpoint": "reporter signal reduction", "value": "~20%"}
{"Substance": "O=C1Cc2ccccc2N1C1CCN([C@@H]2CC[C@@H]3CCCc4cccc2c43)CC1", "target or system": "Nociceptin receptor (OPRL1, Homo sapiens, UniProt P41146)", "test": "radioligand displacement", "setting": "with: [3H]N/OFQ", "endpoint": "Ki", "value": "3.41 ± 0.23 nM"}
{"Substance": "NC12CC3CC(CC(C3)C1)C2", "target or system": "Influenza A virus", "test": "viral replication", "system": "MDCK, A/Swine/Iowa/11-0918/2010", "endpoint": "EC50", "value": "< 1000 nM"}
{"Substance": "CNC(=O)Oc1cccc2c1OC(C)(C)C2", "target or system": "Bche", "system": "ES1-/- mice, plasma", "setting": "subcutaneous, 1.0 mg/kg, 0.5 h, toxicant challenge", "endpoint": "inhibition", "value": "28.9 ± 2.1%"}
{"Substance": "O=S1(=O)c2ccc(F)cc2-c2ccc(N3CCN4CCC3CC4)cc21 [fluorine-18 labelled]", "target or system": "Neuronal acetylcholine receptor subunit alpha-7 (Chrna7, Mus musculus, UniProt P49582)", "system": "CD-1 mouse, hippocampus and colliculus", "setting": "dose not given, 90 min, self-blockade", "how to read": "baseline: blocked cerebellum", "endpoint": "specific binding", "value": "80%"}
{"note": "Some of these lines once more:"}
{"Substance": "CCOC(=O)/C=C/[C@H](C[C@@H]1CCNC1=O)NC(=O)[C@@H](CC(=O)[C@@H](NC(=O)c1cc(C)on1)C(C)C)Cc1ccc(F)cc1", "target or system": "Replicase polyprotein 1ab, main protease (rep, Severe acute respiratory syndrome coronavirus 2, UniProt P0DTD1)", "test": "inhibitor", "system": "SARS-CoV-2", "setting": "40 µM, 48 h", "how to read": "baseline: vehicle", "endpoint": "reporter signal reduction", "value": "~20%"}
{"Substance": "O=C1Cc2ccccc2N1C1CCN([C@@H]2CC[C@@H]3CCCc4cccc2c43)CC1", "target or system": "Nociceptin receptor (OPRL1, Homo sapiens, UniProt P41146)", "test": "radioligand displacement", "setting": "with: [3H]N/OFQ", "endpoint": "Ki", "value": "3.41 ± 0.23 nM"}
{"Substance": "NC12CC3CC(CC(C3)C1)C2", "target or system": "Influenza A virus", "test": "viral replication", "system": "MDCK, A/Swine/Iowa/11-0918/2010", "endpoint": "EC50", "value": "< 1000 nM"}
